{"data": "Measured values from different studies", "note": "Several values in a cell are separate wells, animals, samples, runs or records. ± gives the spread as reported."}
{"SMILES": "C=CC(=O)N1[C@H](c2ccc3c(c2)OCO3)c2[nH]c3ccccc3c2C[C@@H]1C(=O)NC1CC1", "tested on": "rat DRG neurons", "setting": "10 µM, 48 h, with: vincristine 40 nM", "quantity": "mean neuron degeneration", "result": "10.2%"}
{"SMILES": "CC[n+]1cccc2cc(/C=N/NC(=O)N/N=C/c3ccc4c(ccc[n+]4CC)c3)ccc21", "tested on": "22CTA telomeric G4-DNA antiparallel", "assay": "FRET melting", "setting": "1 µM, K10 buffer, DNA 0.2 µM", "quantity": "ΔTm", "result": "6.5 ± 0.8 °C"}
{"SMILES": "C=CCc1c(O)cc2c(c1O)C(=O)CC(c1ccc(O)cc1)O2 (centres unmarked)", "tested on": "MCF7", "assay": "cytotoxicity, MTT", "setting": "0.8 µM, 48 h", "quantity": "growth inhibition", "result": "-10.2%"}
{"SMILES": "Cc1ncsc1-c1ccc(C(C)NC(=O)C2CC(O)CN2C(=O)C(NC(=O)CCCCCCCCCCN2CCCC(Nc3ncc(Cl)c(Nc4ccccc4S(=O)(=O)C(C)C)n3)C2)C(C)(C)C)cc1 (centres unmarked)", "tested on": "22Rv1", "assay": "RNA-seq, measured: RBAK mRNA", "setting": "concentration not given", "how to read": "baseline: DMSO", "quantity": "log2 fold change", "result": -1}
{"SMILES": "CCN(C(=O)c1cc(F)ccc1Oc1nncnc1N1CCC2(C1)CN([C@H](CCCN(C)CCOC)C(C)C)C2)C(C)C", "tested on": "LoVo", "assay": "cell growth or viability", "setting": "7 days", "quantity": "GI50", "result": "> 10 µM"}
{"SMILES": "CCCC[C@H](NC(C)=O)C(=O)N[C@@H](CCC(=O)O)C(=O)N[C@@H](CO)C(=O)N[C@@H](CC(=O)O)C(=O)COC(=O)c1c(C)cccc1C", "tested on": "THP-1 cells, LPS-primed", "assay": "pyroptosis, LDH release", "setting": "25 µM, LPS 1 µg/mL, 4 h, with: nigericin 5 µM, 2 h", "quantity": "cell lysis", "result": "36.5% and 20.5%"}
{"SMILES": "CNS(=O)(=O)Nc1nccc(Cc2c(C)c3ccc(Oc4ncccc4F)cc3oc2=O)c1F", "tested on": "YKG-1", "assay": "cell viability", "setting": "7 days", "quantity": "IC50", "result": "> 1000 nM"}
{"SMILES": "Cc1n[nH]c(C)c1CCCOc1cc(C(=O)NCCCCC(NC(=O)CN2CCN(CC(=O)[O-])CCN(CC(=O)[O-])CCN(CC(=O)[O-])CC2)C(=O)NCC2CCC(C(=O)NC(Cc3ccc4ccccc4c3)C(=O)NCCCCC(NC(=O)NC(CCC(=O)O)C(=O)O)C(=O)O)CC2)ccc1F.[68Ga+3] (centres unmarked)", "tested on": "22Rv1", "setting": "2 h, efflux", "how to read": "baseline: dose", "quantity": "cell retention", "result": "3.35 ± 0.52%"}
{"SMILES": "N#C[C@@H]1CC(F)(F)CN1C(=O)CNC(=O)c1ccnc2ccc(OCCCN3CCN(C(=O)CCc4ccc5c(c4)CN4CCN(Cc6cc(CCC(=O)O)ccc6O)CC(=O)[O][Al-]([18F])([O]C(=O)C4)[O]5)CC3)cc12 (some centres unmarked)", "tested on": "HT1080 cells expressing human FAP", "setting": "15 min, 37 °C", "quantity": "internalized fraction", "result": "81.5 ± 2.9%"}
{"SMILES": "C=CC(=O)N1[C@H](c2ccc3c(c2)OCO3)c2[nH]c3ccccc3c2C[C@H]1C(=O)N1CCOCC1", "tested on": "22Rv1", "assay": "ATAC-seq", "setting": "concentration not given, FOXA1-binding sites, log2FC -1", "quantity": "decreased accessible sites", "result": "625 sites"}
{"SMILES": "CC12CCCC(n3cc(CN4CCS(=O)(=O)CC4)nn3)(C1)C1CC(C)(C)C1CC2 (centres unmarked)", "tested on": "HT-29", "assay": "cell growth or viability, CCK-8", "setting": "10 µM", "quantity": "inhibition", "result": "< 50%"}
{"SMILES": "CCC(=CCc1c(O)cc2c(c1O)C(=O)CC(c1ccc(O)c(OC)c1)O2)CC (centres unmarked)", "tested on": "HeLa", "assay": "cell growth or viability, MTT", "setting": "6.25 µM, 48 h", "quantity": "inhibition", "result": "27%"}
{"SMILES": "O=C(Nc1ccc(Sc2ccc3c(/C=C/c4ccccn4)n[nH]c3c2)cc1)c1ccco1", "tested on": "BaF3", "assay": "cell growth or viability, CCK-8", "quantity": "GI50", "result": "3.05 µM"}
{"SMILES": "Cn1ncc2cc(-c3cncc(Cl)c3N3CCC4(CCNC4=O)CC3)ccc21", "tested on": "LS174T", "assay": "gene expression, microarray, measured: HOXC4 mRNA", "setting": "concentration not given, 4 h", "how to read": "baseline: untreated cells", "quantity": "log2 fold change", "result": 1.19}
{"SMILES": "Nc1ncc(-c2ccc([C@H]3[C@@H](F)[C@@H](F)C[C@@H](F)[C@H]3F)cc2)cn1", "assay": "liver microsome stability", "system": "rat liver microsomes", "setting": "1 µM", "quantity": "hepatic clearance", "result": "6.1 mL/min/kg"}
{"SMILES": "[BH3-][P+]1(c2ccccc2)CCCCC1", "tested on": "HaCaT", "assay": "trypan blue", "setting": "IC50, 72 h", "how to read": "baseline: untreated", "quantity": "reduction of cell number", "result": "10 to 20%"}
{"SMILES": "CC(=O)N1C[C@H](O)C[C@H]1C(=O)N[C@H](C(=O)N[C@@H](CO)C(=O)N[C@@H](CC(=O)O)C(=O)COC(=O)c1c(C)cccc1C)C(C)(C)C", "tested on": "THP-1 cells, LPS-primed", "assay": "pyroptosis, LDH release", "setting": "25 µM, LPS 1 µg/mL, 4 h, with: nigericin 5 µM, 2 h", "quantity": "cell lysis", "result": "79.9% and 84.9%"}
{"SMILES": "C[C@@H]1CC[C@@H]([C@](O)(COCc2ccccc2)Cn2cnc3ccccc32)[C@H](OCc2ccccc2)C1", "tested on": "HeLa", "assay": "cell growth or viability, MTT", "setting": "30 µM, 72 h", "quantity": "inhibition", "result": "95.4%"}
{"SMILES": "Cc1ccc(-c2ccc(C3CCCCC3)cc2)cn1", "assay": "liver microsome stability", "system": "cynomolgus liver microsomes", "setting": "1 µM", "quantity": "hepatic clearance", "result": "39 mL/min/kg"}
{"SMILES": "C[n+]1ccc(/C=N/NC(=O)c2cccc(C(=O)N/N=C/c3cc[n+](C)c4ccccc34)c2)c2ccccc21", "tested on": "22CTA telomeric G4-DNA antiparallel", "assay": "FRET melting", "setting": "1 µM, K10 buffer, DNA 0.2 µM, with: ds26 10 µM", "quantity": "ΔTm", "result": "7 ± 0.3 °C"}
{"SMILES": "Cc1cc2oc(=O)cc(Cn3ccnc3)c2cc1C", "tested on": "COS-7 (untransfected)", "setting": "500 µM, unit not given", "how to read": "baseline: 3 µM ionomycin", "quantity": "calcium mobilisation signal", "result": "0.54 ± 0.64"}
{"SMILES": "CN1CCCNC(=O)c2cccc(c2)C(=O)NCCCN(C)CCCNc2cccc3c2C(=O)c2cccc(c2C3=O)NCCC1", "tested on": "SAS", "assay": "RNA-Seq, measured: GFM2 mRNA", "setting": "1 µM, 6 h", "how to read": "baseline: untreated cells", "quantity": "log2 fold change", "result": -0.463}
{"SMILES": "O=S(=O)(N[C@H]1CCO[C@@H](C2c3ccc(F)cc3CCc3cc(F)ccc32)C1)c1ccc(OC(F)(F)F)cc1", "tested on": "D341", "assay": "immunoblot", "setting": "concentration not given", "quantity": "I2PP2A protein level", "result": "increased"}
